Experimental data pooled from the literature.
± gives the spread as reported.
CSNK1E: Casein kinase I isoform epsilon (CSNK1E, Homo sapiens, UniProt P49674)
Chain of UniProt P49674 (whole entry, looked up): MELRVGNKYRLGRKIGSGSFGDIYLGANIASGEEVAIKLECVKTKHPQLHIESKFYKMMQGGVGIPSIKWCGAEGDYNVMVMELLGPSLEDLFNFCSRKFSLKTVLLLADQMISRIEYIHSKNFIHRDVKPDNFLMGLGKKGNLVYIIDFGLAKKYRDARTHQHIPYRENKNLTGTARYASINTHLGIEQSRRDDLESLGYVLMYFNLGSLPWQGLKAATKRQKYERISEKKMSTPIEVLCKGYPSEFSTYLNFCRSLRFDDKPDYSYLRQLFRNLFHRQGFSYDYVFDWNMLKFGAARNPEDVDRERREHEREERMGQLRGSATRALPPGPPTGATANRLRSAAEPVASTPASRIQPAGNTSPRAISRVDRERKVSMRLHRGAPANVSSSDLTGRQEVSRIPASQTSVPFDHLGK
Chain of UniProt P46734 (whole entry, looked up): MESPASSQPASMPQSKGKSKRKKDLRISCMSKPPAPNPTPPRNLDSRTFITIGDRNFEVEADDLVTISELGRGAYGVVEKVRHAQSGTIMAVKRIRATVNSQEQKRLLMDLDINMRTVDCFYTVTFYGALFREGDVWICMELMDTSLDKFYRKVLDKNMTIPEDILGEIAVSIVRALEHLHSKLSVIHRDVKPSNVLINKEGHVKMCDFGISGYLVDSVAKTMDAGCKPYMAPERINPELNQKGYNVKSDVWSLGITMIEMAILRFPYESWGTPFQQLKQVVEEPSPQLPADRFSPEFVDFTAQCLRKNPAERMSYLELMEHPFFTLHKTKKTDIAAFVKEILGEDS
Chain of UniProt Q16288 (whole entry, looked up): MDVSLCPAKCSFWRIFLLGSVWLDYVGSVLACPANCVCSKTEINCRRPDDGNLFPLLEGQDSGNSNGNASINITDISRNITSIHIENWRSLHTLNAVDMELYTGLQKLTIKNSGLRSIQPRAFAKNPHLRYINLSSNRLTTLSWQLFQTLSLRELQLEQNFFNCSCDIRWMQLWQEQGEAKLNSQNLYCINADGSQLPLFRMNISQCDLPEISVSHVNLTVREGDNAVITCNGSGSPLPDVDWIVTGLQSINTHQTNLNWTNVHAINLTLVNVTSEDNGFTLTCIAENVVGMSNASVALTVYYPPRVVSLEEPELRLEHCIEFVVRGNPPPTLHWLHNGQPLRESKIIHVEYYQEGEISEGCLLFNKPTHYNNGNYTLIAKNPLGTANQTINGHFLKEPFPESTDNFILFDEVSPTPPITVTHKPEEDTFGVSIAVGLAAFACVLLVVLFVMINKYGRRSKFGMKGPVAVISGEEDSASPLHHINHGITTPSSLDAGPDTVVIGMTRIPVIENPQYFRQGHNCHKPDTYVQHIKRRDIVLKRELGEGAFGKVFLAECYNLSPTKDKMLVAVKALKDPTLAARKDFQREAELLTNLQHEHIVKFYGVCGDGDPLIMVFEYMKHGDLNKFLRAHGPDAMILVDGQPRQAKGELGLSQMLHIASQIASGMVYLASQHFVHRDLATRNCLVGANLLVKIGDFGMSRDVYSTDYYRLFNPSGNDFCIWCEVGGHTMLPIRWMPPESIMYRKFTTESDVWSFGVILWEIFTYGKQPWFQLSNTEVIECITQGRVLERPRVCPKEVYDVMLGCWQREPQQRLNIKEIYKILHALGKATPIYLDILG
Chain of UniProt P22607 (whole entry, looked up): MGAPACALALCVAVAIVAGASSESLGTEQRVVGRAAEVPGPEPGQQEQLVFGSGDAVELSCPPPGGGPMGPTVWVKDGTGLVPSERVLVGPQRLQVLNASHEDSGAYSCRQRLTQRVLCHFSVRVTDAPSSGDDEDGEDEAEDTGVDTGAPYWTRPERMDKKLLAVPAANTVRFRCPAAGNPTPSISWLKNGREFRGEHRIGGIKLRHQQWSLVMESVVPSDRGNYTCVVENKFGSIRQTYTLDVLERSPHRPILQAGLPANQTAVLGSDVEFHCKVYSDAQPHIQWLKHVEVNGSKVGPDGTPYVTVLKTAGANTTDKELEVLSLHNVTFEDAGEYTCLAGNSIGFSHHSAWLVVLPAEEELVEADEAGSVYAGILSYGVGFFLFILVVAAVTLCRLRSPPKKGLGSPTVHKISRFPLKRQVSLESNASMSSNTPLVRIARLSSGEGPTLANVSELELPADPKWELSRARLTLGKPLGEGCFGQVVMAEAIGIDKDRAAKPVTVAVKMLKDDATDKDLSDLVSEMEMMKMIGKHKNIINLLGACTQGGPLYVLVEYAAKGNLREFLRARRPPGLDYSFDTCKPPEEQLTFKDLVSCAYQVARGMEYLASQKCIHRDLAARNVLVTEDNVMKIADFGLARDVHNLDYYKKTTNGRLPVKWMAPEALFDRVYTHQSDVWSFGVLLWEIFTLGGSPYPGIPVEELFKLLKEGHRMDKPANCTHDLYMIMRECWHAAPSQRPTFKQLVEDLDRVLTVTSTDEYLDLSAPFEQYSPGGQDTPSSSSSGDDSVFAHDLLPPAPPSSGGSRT
Chain of UniProt O75385 (whole entry, looked up): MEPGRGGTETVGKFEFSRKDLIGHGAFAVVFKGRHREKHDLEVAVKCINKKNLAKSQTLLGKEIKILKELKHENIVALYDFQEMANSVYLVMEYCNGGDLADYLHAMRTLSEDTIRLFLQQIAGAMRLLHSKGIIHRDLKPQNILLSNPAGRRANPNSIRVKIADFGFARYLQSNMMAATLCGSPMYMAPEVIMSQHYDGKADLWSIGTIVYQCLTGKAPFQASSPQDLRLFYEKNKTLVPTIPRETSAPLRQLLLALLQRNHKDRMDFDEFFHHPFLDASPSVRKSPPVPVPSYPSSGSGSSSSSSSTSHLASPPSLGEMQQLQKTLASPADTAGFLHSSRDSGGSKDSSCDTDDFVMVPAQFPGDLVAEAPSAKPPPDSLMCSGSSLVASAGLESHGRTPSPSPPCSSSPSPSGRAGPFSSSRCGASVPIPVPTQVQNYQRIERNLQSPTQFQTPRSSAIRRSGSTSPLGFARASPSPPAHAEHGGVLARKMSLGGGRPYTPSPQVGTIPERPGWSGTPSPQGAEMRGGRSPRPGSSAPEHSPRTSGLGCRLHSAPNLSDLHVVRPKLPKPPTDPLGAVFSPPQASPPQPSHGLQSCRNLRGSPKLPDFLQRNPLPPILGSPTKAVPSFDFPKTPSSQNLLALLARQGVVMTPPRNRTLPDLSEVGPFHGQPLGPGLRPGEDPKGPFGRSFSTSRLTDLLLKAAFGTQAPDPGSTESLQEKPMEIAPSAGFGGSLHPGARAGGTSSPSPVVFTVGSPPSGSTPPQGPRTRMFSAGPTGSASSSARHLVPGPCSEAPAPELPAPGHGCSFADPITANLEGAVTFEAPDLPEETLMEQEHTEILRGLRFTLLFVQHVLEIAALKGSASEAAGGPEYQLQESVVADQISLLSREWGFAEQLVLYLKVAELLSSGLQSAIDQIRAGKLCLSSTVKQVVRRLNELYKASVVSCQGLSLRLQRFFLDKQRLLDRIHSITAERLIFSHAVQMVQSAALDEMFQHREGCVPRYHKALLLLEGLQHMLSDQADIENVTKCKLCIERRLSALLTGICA
Chain of UniProt Q9H422 (whole entry, looked up): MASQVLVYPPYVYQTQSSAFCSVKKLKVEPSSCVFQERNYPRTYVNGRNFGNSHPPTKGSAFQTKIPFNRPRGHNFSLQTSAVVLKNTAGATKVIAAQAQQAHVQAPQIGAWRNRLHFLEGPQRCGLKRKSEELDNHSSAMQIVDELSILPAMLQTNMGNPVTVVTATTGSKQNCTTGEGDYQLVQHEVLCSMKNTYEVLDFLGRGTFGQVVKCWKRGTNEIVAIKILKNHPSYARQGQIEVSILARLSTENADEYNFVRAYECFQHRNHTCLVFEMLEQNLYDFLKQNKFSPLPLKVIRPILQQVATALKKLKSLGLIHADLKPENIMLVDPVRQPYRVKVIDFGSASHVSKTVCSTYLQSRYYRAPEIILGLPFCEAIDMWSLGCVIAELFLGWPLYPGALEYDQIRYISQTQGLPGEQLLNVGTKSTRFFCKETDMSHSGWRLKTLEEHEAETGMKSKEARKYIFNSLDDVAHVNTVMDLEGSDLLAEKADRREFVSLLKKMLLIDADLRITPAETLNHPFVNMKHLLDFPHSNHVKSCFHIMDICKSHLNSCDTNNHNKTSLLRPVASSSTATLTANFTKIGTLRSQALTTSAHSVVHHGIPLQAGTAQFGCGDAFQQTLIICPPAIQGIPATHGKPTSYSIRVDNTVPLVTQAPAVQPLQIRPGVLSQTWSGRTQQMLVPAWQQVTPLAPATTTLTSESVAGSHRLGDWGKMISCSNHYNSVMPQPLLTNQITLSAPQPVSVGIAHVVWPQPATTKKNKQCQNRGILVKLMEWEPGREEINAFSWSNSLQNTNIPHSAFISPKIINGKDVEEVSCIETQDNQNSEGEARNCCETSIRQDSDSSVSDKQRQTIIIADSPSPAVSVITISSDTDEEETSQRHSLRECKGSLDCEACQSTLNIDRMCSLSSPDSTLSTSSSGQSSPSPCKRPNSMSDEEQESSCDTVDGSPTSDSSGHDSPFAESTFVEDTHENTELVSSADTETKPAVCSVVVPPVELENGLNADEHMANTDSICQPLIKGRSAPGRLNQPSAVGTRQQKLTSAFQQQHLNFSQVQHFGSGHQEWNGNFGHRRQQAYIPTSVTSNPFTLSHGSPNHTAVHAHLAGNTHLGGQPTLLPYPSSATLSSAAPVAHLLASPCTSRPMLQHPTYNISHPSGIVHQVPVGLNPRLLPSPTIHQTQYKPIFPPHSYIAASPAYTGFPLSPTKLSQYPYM
Chain of UniProt Q00535 (whole entry, looked up): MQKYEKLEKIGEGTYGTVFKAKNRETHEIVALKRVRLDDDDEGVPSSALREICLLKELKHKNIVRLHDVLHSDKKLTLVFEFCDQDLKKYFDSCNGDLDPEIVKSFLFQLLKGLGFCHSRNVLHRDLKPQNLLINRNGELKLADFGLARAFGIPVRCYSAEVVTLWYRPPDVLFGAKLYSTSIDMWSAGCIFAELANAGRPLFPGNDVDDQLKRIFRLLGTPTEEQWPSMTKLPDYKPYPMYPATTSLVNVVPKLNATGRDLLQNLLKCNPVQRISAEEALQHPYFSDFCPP

Compound	target	test	test system	setting	how to read	remaining activity [%]
C=CC(=O)N1CCC[C@@H](n2nc(-c3ccc(Oc4ccccc4)cc3)c3c(N)ncnc32)C1	NT-3 growth factor receptor (NTRK3, Homo sapiens, UniProt Q16288)	–	–	10 µM	–	77.4
C=CC(=O)N1CCC[C@@H](n2nc(-c3ccc(Oc4ccccc4)cc3)c3c(N)ncnc32)C1	CSNK1E	kinase activity, inhibitor, HotSpot radiometric	–	100 nM, with: ATP 10 µM	–	82.9 ± 2.2
COc1cc(N2CCN(C)CC2)ccc1Nc1nc(N)n(C(=S)NCc2c(Cl)cccc2Cl)n1	Mitogen-activated protein kinase kinase kinase 15 (MAP3K15, Homo sapiens, UniProt Q6ZN16)	enzyme activity	–	10 µM	reference: control	6
O=C(O)c1ccc(Nc2ncc3c(n2)-c2ccc(Cl)cc2C(c2c(F)cccc2F)=NC3)cc1	yeast CK1	inhibitor, biochemical kinase	–	1 µM	–	115
Cc1cc(Nc2cc(N3CCN(C)CC3)nc(Sc3ccc(NC(=O)C4CC4)cc3)n2)[nH]n1	Homeodomain-interacting protein kinase 3 (HIPK3, Homo sapiens, UniProt Q9H422)	kinase activity, KinaseProfiler	–	0.03 µM, species human	reference: control	109
COc1ccc(F)cc1C(=O)NCc1ccc(-c2nn([C@@H](C)C(F)(F)F)c(N)c2C(N)=O)cc1	Fibroblast growth factor receptor 3 (FGFR3, Homo sapiens, UniProt P22607)	kinase activity, inhibitor, HotSpot radiometric	–	100 nM, with: ATP 10 µM	–	93.8 ± 1.1
CNc1ncc2c(/C=C/C(=O)N3CCC(OC)CC3)nn(Cc3cccc(C(F)(F)F)c3)c2n1	CSNK1E	kinase activity, inhibitor	–	1 µM	reference: untreated control	101
COc1cc(-c2cncc3c2CN(C)Cc2cc(N4CCNCC4)ccc2-3)cc(OC)c1OC	Dual specificity mitogen-activated protein kinase kinase 3 (MAP2K3, Homo sapiens, UniProt P46734)	kinase activity	–	1 µM, human enzyme, with: ATP 10 µM	reference: DMSO control	93
COc1cc(F)ccc1-c1ncnc(Nc2cccc(C[S@](C)(=N)=O)c2)n1	Protein kinase C theta type (PRKCQ, Homo sapiens, UniProt Q04759)	kinase activity	–	10 µM, with: 10 µM ATP	–	102
C=CC[C@H]1c2ccc(OC)c(OC)c2CN2CCc3cc4c(cc3[C@@H]12)OCO4	P2X purinoceptor 7 (P2RX7, Homo sapiens, UniProt Q99572)	ATP-evoked current, inhibitor, whole-cell patch clamp	HEK293 transfected	10 µM	–	69.4
COc1cc(Nc2ncc3c(n2)-c2ccc(Cl)cc2C(c2c(F)cccc2OC)=NC3)ccc1C(=O)O	STK22B	kinase activity	–	1 µM	–	111
O=C(NC1CCC1)c1ccc2nc(-c3cccc(NS(=O)(=O)NCCN4CCCCC4)c3)cn2c1	Serine/threonine-protein kinase ULK1 (ULK1, Homo sapiens, UniProt O75385)	enzyme activity	–	10 µM	–	85
CC(C)(C)c1nc2c(s1)c1nc(N)ncc1c1ccc(NS(=O)(=O)c3c(F)cccc3F)c(F)c12	Cyclin-dependent kinase 5, with p25 (CDK5, Homo sapiens, UniProt Q00535)	kinase activity, radiometric 33PanQinase	–	1 µM	reference: DMSO	101

A few entries again:
Compound	target	test	test system	setting	how to read	remaining activity [%]
COc1cc(-c2cncc3c2CN(C)Cc2cc(N4CCNCC4)ccc2-3)cc(OC)c1OC	Dual specificity mitogen-activated protein kinase kinase 3 (MAP2K3, Homo sapiens, UniProt P46734)	kinase activity	–	1 µM, human enzyme, with: ATP 10 µM	reference: DMSO control	93
